Results collected from several papers.
Compare with care: the assays were run in different laboratories. ± gives the spread as reported.
CYP2D6: Cytochrome P450 2D6 (CYP2D6, Homo sapiens, UniProt P10635)
UniProt P10635, sequence (whole entry, looked up): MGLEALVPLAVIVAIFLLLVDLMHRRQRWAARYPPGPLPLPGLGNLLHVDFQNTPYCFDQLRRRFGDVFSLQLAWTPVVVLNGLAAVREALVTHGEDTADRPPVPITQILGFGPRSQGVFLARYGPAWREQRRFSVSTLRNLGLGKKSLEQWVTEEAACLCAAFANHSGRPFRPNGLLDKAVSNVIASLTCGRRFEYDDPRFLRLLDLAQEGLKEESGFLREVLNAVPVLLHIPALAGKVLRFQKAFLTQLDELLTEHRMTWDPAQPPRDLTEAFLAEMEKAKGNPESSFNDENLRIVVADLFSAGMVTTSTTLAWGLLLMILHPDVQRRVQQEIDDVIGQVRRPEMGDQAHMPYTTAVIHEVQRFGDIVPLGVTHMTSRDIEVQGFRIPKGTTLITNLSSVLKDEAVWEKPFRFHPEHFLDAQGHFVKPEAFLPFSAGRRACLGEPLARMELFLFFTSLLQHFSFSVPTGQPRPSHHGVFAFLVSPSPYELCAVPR
UniProt P08684, sequence (whole entry, looked up): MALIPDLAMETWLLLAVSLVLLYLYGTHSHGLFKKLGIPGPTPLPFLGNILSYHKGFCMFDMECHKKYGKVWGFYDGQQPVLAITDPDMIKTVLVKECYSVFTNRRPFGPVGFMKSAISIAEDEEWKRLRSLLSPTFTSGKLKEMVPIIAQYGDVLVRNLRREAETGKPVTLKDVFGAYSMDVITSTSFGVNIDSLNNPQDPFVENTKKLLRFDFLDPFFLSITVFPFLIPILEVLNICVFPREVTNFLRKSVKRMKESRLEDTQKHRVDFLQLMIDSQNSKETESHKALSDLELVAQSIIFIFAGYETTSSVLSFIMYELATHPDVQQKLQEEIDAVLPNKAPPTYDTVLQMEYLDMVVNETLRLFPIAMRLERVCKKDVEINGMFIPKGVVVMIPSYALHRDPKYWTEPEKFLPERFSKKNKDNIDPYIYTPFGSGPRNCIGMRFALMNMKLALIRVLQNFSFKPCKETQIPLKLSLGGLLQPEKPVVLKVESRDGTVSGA

Cc1ncc2n1-c1ccc(Cl)cc1C(c1ccccc1F)=NC2  AUC(0-inf) (Cytochrome P450 3A4 (CYP3A4, Homo sapiens, UniProt P08684); human, plasma; oral, 2 mg, alone, geometric LS mean): 20.7 ng·h/mL
OCc1ncc2n1-c1ccc(Cl)cc1C(c1ccccc1F)=NC2  glucuronide metabolic ratio (UDP-glucuronosyltransferases; human cirrhosis patients; reference: without cirrhosis): decreased
CNC1(c2ccccc2Cl)CCCCC1=O (centres unmarked)  IC50 (UDP-glucuronosyltransferase, human; 4-MU glucuronidation, inhibitor; human liver microsomes; 30 min, pH 7.4, with: 4-methylumbelliferone 100 µM): > 1000 µM
CCCCCc1cc(O)c2c(c1)OC(C)(C)[C@@H]1CCC(C)=C[C@@H]21  M3 formation rate reduction (recombinant human CYPs; substrate; 10 µM; reference: CYP3A4): > 70%
C=C[C@H]1CN2CCc3c([nH]c4cccc(OC)c34)[C@@H]2C[C@@H]1/C(=C\OC)C(=O)OC  IC50 (CYP2D6; enzyme activity, inhibitor; human, liver microsomes): 6 µM
CNC(=O)O/N=C/C(C)(C)SC  inhibition (CYP2D6; inhibitor; human liver microsomes; 10 µM, pH 7.4, with: dextromethorphan): 5.47%
Cc1ncc2n1-c1ccc(Cl)cc1C(c1ccccc1F)=NC2  glucuronide metabolic ratio (UDP-glucuronosyltransferases; human cirrhosis patients; reference: without cirrhosis): decreased
CNC(=O)O/N=C/C(C)(C)S(C)(=O)=O  inhibition (CYP2D6; inhibitor; human liver microsomes; 2 µM, pH 7.4, with: dextromethorphan): 2.69%
C[C@]12CC[C@H](OS(=O)(=O)O)CC1=CC[C@@H]1[C@@H]2CC[C@]2(C)C(=O)CC[C@@H]12  Km (sulfatase, human liver microsomes; substrate; pH 7.4, 37 °C): 18.1 ± 3.1 µM
CNC(=O)O/N=C/C(C)(C)[S+](C)[O-] (centres unmarked)  inhibition (CYP2D6; inhibitor; human liver microsomes; 10 µM, pH 7.4, with: dextromethorphan): 6.74%
CC[C@@H]1CN2CCc3c([nH]c4cccc(OC)c34)[C@H]2C[C@@H]1/C(=C\OC)C(=O)OC  IC50 (CYP2D6; enzyme activity, inhibitor; human, liver microsomes): > 45 µM

Excerpt of the above:
CNC(=O)O/N=C/C(C)(C)S(C)(=O)=O  inhibition (CYP2D6; inhibitor; human liver microsomes; 2 µM, pH 7.4, with: dextromethorphan): 2.69%
